Published values collected from several papers.
Several values in a cell are separate wells, animals, samples, runs or records. Numbers after ± are the reported error.
UniProt Q64663, sequence (whole entry, unmodified, looked up): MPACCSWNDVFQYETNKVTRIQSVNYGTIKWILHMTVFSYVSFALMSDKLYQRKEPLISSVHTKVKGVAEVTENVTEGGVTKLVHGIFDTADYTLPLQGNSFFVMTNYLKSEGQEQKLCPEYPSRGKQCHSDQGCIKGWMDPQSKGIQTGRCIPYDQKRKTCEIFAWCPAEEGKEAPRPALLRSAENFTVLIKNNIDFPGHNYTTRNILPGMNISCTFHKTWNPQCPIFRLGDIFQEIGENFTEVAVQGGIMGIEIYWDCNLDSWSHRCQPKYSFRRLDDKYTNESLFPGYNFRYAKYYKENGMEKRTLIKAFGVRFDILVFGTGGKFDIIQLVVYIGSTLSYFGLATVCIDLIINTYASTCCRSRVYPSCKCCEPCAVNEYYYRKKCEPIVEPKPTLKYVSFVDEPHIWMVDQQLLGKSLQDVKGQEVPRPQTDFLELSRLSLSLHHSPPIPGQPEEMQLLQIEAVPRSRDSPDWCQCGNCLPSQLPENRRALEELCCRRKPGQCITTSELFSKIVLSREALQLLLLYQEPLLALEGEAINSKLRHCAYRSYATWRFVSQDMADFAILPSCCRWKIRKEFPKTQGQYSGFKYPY
UniProt P84090, sequence (whole entry, unmodified, looked up): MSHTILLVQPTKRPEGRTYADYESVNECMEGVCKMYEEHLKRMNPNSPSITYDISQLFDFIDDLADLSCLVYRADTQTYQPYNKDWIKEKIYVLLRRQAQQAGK

semaglutide — serum AST (Wistar rat, male, diet-induced obese, blood, fasted; subcutaneous, dose not given, after 10 weeks treatment): 138 ± 18 U/L
adrenomedullin — retention time (RP-HPLC; HALO Peptide ES-C18 column; 25 µM, formic acid/acetonitrile, 10 min gradient): 3.75 min
human ME2 R67A — K0.5 (enzyme activity, substrate; recombinant enzyme; pH 7.4, together with: fumarate 3 mM): 0.98 ± 0.11 mM
insulin aspart — tmax (ELISA after PEG precipitation, measured: free insulin aspart; human, type 1 diabetes, serum; subcutaneous, least squares mean, single dose): 1.1 h
human ME2 T60S — K0.5 (enzyme activity, substrate; recombinant enzyme; pH 7.4, together with: no fumarate): 11.4 ± 0.41 mM
caspofungin — aspartate aminotransferase (adult ICU patients, mITT, serum; dose not given, day 30): 26.2 U/L
11-deoxycorticosterone — rate constant k-1 (CYP11B2 (human); substrate binding, stopped-flow global kinetic fitting; purified enzyme; 3-state induced fit model, together with: 10-fold excess adrenodoxin): 31 ± 1.58 s⁻¹
FGB (Homo sapiens, UniProt P02675) — cross-linked residues (CCDC126 (Homo sapiens, UniProt Q96EE4); cross-linking MS; together with: DSSO): K367 to K99
Neuropeptide Y — retention time (RP-HPLC; HALO C18 column; 25 µM, formic acid/acetonitrile, 25 min gradient): 7.86 min
human ME2 I58F — K0.5 (enzyme activity, substrate; recombinant enzyme; pH 7.4, together with: no fumarate): 7.69 ± 0.32 mM
insulin — concentration (LC-MS/MS; human serum pool; 24 h, 4 °C, high pool, before preparation, together with: C-peptide 8.70 ng/mL): 0.00954 µg/mL
insulin degludec — Tmax, median (human; subcutaneous, 0.4 IU/kg, 3 FC level, single dose, reference formulation): 14 h
human ME2 D102S — K0.5 (enzyme activity, substrate; recombinant enzyme; pH 7.4, together with: no fumarate): 7.62 ± 0.14 mM
human insulin — Cmax (ELISA; pig, juvenile, anaesthetized, serum; subcutaneous, 20 IU, --20 to +420 min, euglycaemic clamp): 0.342 ± 0.05 nM
colistin — MIC (Pseudomonas aeruginosa; broth microdilution; clinical isolate RKI-No_130/15): 1 µg/mL
insulin aspart — insulin Cmax (human, type 1 diabetes, plasma; subcutaneous, 0.3 U/kg, geometric mean): 0.00504 µg/mL
BzATP — normalized current (P2X purinoceptor 7 (P2rx7, Rattus norvegicus, UniProt Q64663, Q143A/R125A); ion current, agonist, two-electrode voltage clamp; Xenopus laevis oocytes; 0.41 µM; baseline: highest concentration response): 0 and 0.00625 and 0.00534
ACDDQNPWRAYLDLLFPTDTLLLDLLW — mean fluorescence intensity (ex vivo fluorescence imaging; peptide, BALB/c mice, 4T1 tumour-bearing, muscle; intravenous, 5 nmol, 2 h post-injection; higher = more uptake): 963 ± 121 a.u.
MLHGVAWQ — cellular uptake (HUVEC; ICP-OES, measured: rhenium; peptide; 24 h; baseline: loaded): 1.66%
durvalumab — Cmax (human, plasma; intravenous, 1500 mg, cycle 4 day 1, together with: adavosertib 125 mg twice daily): 482 µg/mL
insulin aspart — Tmax (human type 1 diabetes pump-treated, plasma; subcutaneous pump, two-compartment model): 1.1 h
rituximab — serum concentration (relapsed iNHL patients; dose not given, after fourth infusion): 365 µg/mL
PRTARHAPAVRKFSPDLKLLKDVKISVSFTE (DGCR8(96-126), SUMO-tagged) — ΔH (Enhancer of rudimentary homolog (Homo sapiens, UniProt P84090, M35A); DGCR8 peptide binding, ITC; peptide; 293 K): -2.39 ± 0.208 kcal/mol
pegcetacoplan — number of TEAEs (measured: immune system disorders; patients with PNH; dose not given, phase Ib trial): 2
FGA (Homo sapiens, UniProt P02671) — cross-linked residues (AUTS2 (Homo sapiens, UniProt Q8WXX7); cross-linking MS; together with: DSSO): K100 to K167
insulin icodec — AUC(0-inf) increase (human, mild renal impairment, serum; subcutaneous, 1.5 U/kg single dose; baseline: normal renal function): 12%
FNA / CGLSGLGVA-NH2 ([18F]FNA-labelled, C-amide) — tissue uptake (ex vivo gamma counting; peptide, healthy mouse, kidney; 60 min post injection): 5.39 %ID/g
ACEEQNPWARYLEWLFPTETLLLEL — mean fluorescence intensity (ex vivo fluorescence imaging; peptide, BALB/c mice, 4T1 tumour-bearing, liver; intravenous, 5 nmol, 48 h post-injection; higher = more uptake): 194 ± 20.6 a.u.
insulin icodec — accumulation ratio for Cmax (Chinese type 2 diabetes patients; subcutaneous; baseline: steady state over first dose): 2.09
ACEQNPIYWARYADWLFTTPLLLLDLALLVDADEGT — mean fluorescence intensity (ex vivo fluorescence imaging; peptide, BALB/c mice, 4T1 tumour-bearing, 4T1 tumour; intravenous, 5 nmol, 48 h post-injection; higher = more uptake): 1000 ± 130 a.u.
Peginesatide — phosphorylation level (UT7/EPO; tyrosine phosphorylation, LC-MS/MS phosphoproteomics, GluC, measured: TOP2B tyrosine 928; 10 nM, 15 min, together with: 10 U/mL EPO; baseline: vehicle): 5.3 fold

Some of these lines once more:
insulin aspart — Tmax (human type 1 diabetes pump-treated, plasma; subcutaneous pump, two-compartment model): 1.1 h
rituximab — serum concentration (relapsed iNHL patients; dose not given, after fourth infusion): 365 µg/mL
PRTARHAPAVRKFSPDLKLLKDVKISVSFTE (DGCR8(96-126), SUMO-tagged) — ΔH (Enhancer of rudimentary homolog (Homo sapiens, UniProt P84090, M35A); DGCR8 peptide binding, ITC; peptide; 293 K): -2.39 ± 0.208 kcal/mol
pegcetacoplan — number of TEAEs (measured: immune system disorders; patients with PNH; dose not given, phase Ib trial): 2
FGA (Homo sapiens, UniProt P02671) — cross-linked residues (AUTS2 (Homo sapiens, UniProt Q8WXX7); cross-linking MS; together with: DSSO): K100 to K167
